Published values pooled from the literature.
Each numbered part is a random draw from the data of one study; scales do not carry over between parts. Changes are numbered by the printed parent chain.

Series 1
Substance: PhoQ, residues 284 288 289 292 302 303 ASTSDA
Method: Sort-seq
Refers to: YFP reporter
Sample: E. coli
Setting: PhoQ-PhoP variant library
Together with: 10 µM Mg2+
Baseline: high Mg2+ state
Reading: higher = stronger signaling
target	fold induction
PhoP, residues 12 14 15 18 19 SHWTV (Escherichia coli, UniProt P23836)	1.96
PhoP, residues 12 14 15 18 19 QYCSL (Escherichia coli, UniProt P23836)	9.44
PhoP, residues 12 14 15 18 19 STHWV (Escherichia coli, UniProt P23836)	12.6

Series 2
Target: Protein C-ets-1 (ETS1, Homo sapiens, UniProt P14921, residues 1-441, Y397A, full length assumed)
Method: protein-binding microarray
Molecule type: double-stranded DNA, one strand shown
Sample: in vitro
Tested at: not given
Setting: k-mer, scored over probes, only values ≥0.25
Reading: higher = stronger binding
Target sequence (chain): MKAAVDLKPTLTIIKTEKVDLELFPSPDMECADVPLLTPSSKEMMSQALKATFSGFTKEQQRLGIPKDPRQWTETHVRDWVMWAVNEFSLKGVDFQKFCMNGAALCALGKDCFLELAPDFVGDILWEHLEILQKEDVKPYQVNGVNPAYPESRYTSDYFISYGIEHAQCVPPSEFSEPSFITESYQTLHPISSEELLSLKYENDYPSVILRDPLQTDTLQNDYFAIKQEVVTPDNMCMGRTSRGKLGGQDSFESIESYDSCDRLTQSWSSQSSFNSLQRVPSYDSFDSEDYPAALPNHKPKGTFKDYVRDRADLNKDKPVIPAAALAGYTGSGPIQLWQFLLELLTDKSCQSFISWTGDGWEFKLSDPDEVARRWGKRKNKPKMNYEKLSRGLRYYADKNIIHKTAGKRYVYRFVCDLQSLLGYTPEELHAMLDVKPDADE
Strand	E-score
ACACTTCC	0.288
AACAGACA	0.303
TACAAATA	0.293
GTTTGGCA	0.299
GATTGCAA	0.295
ATGTGTTG	0.286
CGCCAAAA	0.419
GTAATGAC	0.271
ATCCGGCA	0.347
CATATAGG	0.282
CAGACAAC	0.266
AACGGAAA	0.255
GACAAATC	0.288
ACAATTCG	0.277
CCCGCAAA	0.277
AACCGGAA	0.327
GATGGCAA	0.286
CAATGTGA	0.289
CCGCCCGC	0.296
CTGACAAC	0.254
AACAATGT	0.31

Series 3
Target: ABI1, truncated, D143A, DHFR fusion (Arabidopsis thaliana)
Method: DHFR PCA, deep sequencing
Sample: yeast
Setting: methotrexate growth selection, single substitutions
Together with: (+)-ABA 0 µM
Baseline: wild-type fitted maximum
Reading: higher = stronger binding
Starting sequence: PYL1, truncated, DHFR fusion (Arabidopsis thaliana); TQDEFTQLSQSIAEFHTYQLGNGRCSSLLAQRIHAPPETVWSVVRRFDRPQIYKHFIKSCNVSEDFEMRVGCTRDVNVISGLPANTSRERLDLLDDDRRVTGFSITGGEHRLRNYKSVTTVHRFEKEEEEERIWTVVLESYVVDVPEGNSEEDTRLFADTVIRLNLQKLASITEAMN
Substitution	relative binding score
D3P	19.6%
K54A	1.61%
E127I	14.7%
F157R	11%
V142S	7.19%
F124K	6.7%
D48K	-5.46%
R113W	2.72%
Y53C	-2.17%
A170T	0.295%
L91E	3.25%
S11R	-0.106%
S27T	-2.06%
P50L	2.15%
L94S	-0.181%
E109H	3.18%

Series 4
Target: CCNF, cyclin fold, Cln2 fusion (human)
Method: yeast growth competition, sequencing
Sample: yeast
Setting: strong parent motif
Baseline: not given
Reading: higher = stronger binding
Starting sequence: INSM1 docking peptide (human); PKAIRKLHFEDEV
Substitution	normalised enrichment score
PKAIRKLHFEDSV [E12S]	7.93
PKAIRKNHFEDEV [L7N]	-0.253
PKAYRKLHFEDEV [I4Y]	7.15
PKAIRLLHFEDEV [K6L]	3.37
PKAIRKLHFEDQV [E12Q]	7.51
PKAIRKLHFEDHV [E12H]	7.76
PKAIRKLHDEDEV [F9D]	-0.0815
PKAIDKLHFEDEV [R5D]	-0.26
PKAIRKLHFLDEV [E10L]	7.29
PKAIRKRHFEDEV [L7R]	0.0384
PKAIAKLHFEDEV [R5A]	0.48
PKAIRKLHFEDFV [E12F]	7.99
PKAIRKLHFEYEV [D11Y]	7.53
PKAHRKLHFEDEV [I4H]	7.28
PKRIRKLHFEDEV [A3R]	2.39
PAAIRKLHFEDEV [K2A]	7.3
PKAARKLHFEDEV [I4A]	7.52
PKAGRKLHFEDEV [I4G]	7.13
PKAIRKLHEEDEV [F9E]	0.0394
PKAIRKLHAEDEV [F9A]	-0.288
PKAIRHLHFEDEV [K6H]	6.23
PKAIRKLHFFDEV [E10F]	7.8
PPAIRKLHFEDEV [K2P]	6.77
